Measurements gathered from unrelated publications.
Numbered parts are unrelated; each lists some results of a single study.

Set 1
Target: RNA binding protein fox-1 homolog 2, RRM domain, GST-SBP tag (RBFOX2, Homo sapiens, UniProt O43251-10, residues 100-194)
Method: RNA Bind-n-Seq
Molecule type: RNA
Sample: in vitro
Tested at: 365 nM
Setting: natural RNA segment, single round, ends assumed
Reference: no-protein control
Reading: higher = stronger binding
Construct (chain): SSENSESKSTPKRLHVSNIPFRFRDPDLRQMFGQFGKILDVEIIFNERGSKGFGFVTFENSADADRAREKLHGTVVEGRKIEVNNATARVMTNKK
Sequence	RBNS enrichment (R)
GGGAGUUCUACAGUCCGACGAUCCCCGGUCCCCACACACUUCGCACCCAAUGUGGGCUGGGGGGCUGCUCAGACUCCUGUGAAGGCACAGCUACAGUUGUGGCCUGAAGGAGGCCCAGCUGGGACUGUGUGCUUGGAAUUCUCGGGUGCCAA	0.501
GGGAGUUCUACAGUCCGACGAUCACUAUAUCCCCACCUCUGCUUGCUUUCUUUCCCUCCCCUCCAAUGAUAAAGAAAAUGAUAAAUUUUCUGUUGUGCAUUCAAUUCUUAUUUUAAAUAAGACUAAGUAUAGGUGGAAUUCUCGGGUGCCAA	0.942
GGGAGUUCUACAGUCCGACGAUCAUUGCCAGUUUUCUUCAUUCAGAAUCUGUUUGUUGAUCAAGUGACUGUCCCCGUAAAAAGUAGAAGAUAAGUUUGUUAAAGUAUUUUUUAUAAACAGCUUAAUAUAAAACUGGAAUUCUCGGGUGCCAA	0.511
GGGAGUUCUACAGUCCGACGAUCUGUUGACCACAUACAGCAGGCAGCUUCACGUCCUCCCGCUAACAUCUGCUGCCUUAGACCUGGGUGGGAUGUCUUGCUUAUUUGAAAUGUGUAGUGUUGAUUGACACAUUUGGAAUUCUCGGGUGCCAA	0.772
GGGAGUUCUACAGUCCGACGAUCACCUCUUUUUCUUUAUAAAUUACCCAGUCUUGGUUAUGUCUUUAUCAGCACUGUGAAAAUGAACCUAUACAGUAAAUUGGUACCAGUAGAGUGGGGCGCUGCUGUAAAUAUGGAAUUCUCGGGUGCCAA	0.588
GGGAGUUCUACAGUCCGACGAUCUGUUUCUAAAACACAGAACUUACAAGAGCCACAGGAGCCAAUUAUAGCACCUGACAGAAUACUUCUCCUCUUCCUCACCUUCGGGUGCCUCUAGACACUUGACUUACGAUUGGAAUUCUCGGGUGCCAA	0.272
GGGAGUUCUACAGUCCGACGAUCCCCUGGUCUUGGCGCUUCCCUGAUGGACAGAGCUCAAGUUCCAUUUAUAUUAACCGCCACCUGUGGAUUUUGCAGUAAUUGCUAACACAUGCAGUUUUAAUGGGAAGUGGUGGAAUUCUCGGGUGCCAA	0.275

Set 2
Target: Histone acetyltransferase KAT6A, winged helix 2, GST fusion (KAT6A, Homo sapiens, UniProt Q92794, residues 85-181)
Method: protein binding microarray
Molecule type: double-stranded DNA, one strand shown
Sample: in vitro
Tested at: not given
Setting: 8-mer, flanks averaged, mean of 2 arrays, mostly near background
Reference: not given
Reading: higher = stronger binding
Construct (chain): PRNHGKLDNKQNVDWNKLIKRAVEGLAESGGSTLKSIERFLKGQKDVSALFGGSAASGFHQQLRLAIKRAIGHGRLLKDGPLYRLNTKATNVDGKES
Sequence	E-score
CAGGTCCG	0.101
TGTATCAA	0.159
CAACGTAG	0.000235
ACCACGTA	-0.208
ACTATCCA	-0.0569
CGGGCCAC	0.0625
CTCCGTGC	0.124

Set 3
Target: Sal-like protein 4, full length isoform B (SALL4, Homo sapiens, UniProt Q9UJQ4-2, residues 1-616)
Method: universal PBM
Molecule type: double-stranded DNA, one strand shown
Sample: in vitro
Tested at: not given
Setting: 8-mer, flanks averaged, mean of replicates
Reading: higher = stronger binding
Sequence	E-score
AAGATGCG	-0.033
ACGTTACT	0.121
AACCGGGA	-0.139
ATCAAAAG	0.153
AACAGGAG	-0.0877
TGCCCCCA	0.0333
CTTTTACC	0.0604
CGGAGTTA	-0.144
AGTAACCG	-0.0901
CGAGAGCC	-0.273
CTACACAG	0.017
CTGGTTCA	-0.0887
ACTGCGCG	-0.309

Set 4
Target: RING finger protein unkempt homolog, zinc fingers 1-6, GST-SBP tag (UNK, Homo sapiens, UniProt Q9C0B0, residues 30-357)
UniProt Q9C0B0, sequence (30-357, looked up): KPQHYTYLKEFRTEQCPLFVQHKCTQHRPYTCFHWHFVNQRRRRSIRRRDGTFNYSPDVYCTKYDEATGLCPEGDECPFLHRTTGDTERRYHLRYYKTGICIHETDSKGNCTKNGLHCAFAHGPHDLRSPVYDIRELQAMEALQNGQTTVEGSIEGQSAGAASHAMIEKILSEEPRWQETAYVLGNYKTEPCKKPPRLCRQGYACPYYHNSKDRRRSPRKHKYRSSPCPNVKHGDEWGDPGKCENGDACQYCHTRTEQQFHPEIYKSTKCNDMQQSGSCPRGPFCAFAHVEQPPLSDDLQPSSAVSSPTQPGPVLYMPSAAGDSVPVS
Method: RNA Bind-n-Seq
Molecule type: RNA
Sample: in vitro
Tested at: not given
Setting: RNA with constant flanks, human and mouse sites, ends assumed
Reference: input RNA pool
Reading: higher = stronger binding
Sequence	bound/input enrichment [ratio]
GGGAGUUCUACAGUCCGACGAUCCCCCCAACUGCCAAUGAGAUGGCUGACAUUCAGGUUUCAGCAGCUGCCGCUAGGCCUAAGUCAGCCUUUAAAGUCCAGAAUGCCACCACAAAAGGCCCAAAUGGUGUCUAUGAUUUCUCUCAACAGAGGAUUGAGCAUCA	0.562
GGGAGUUCUACAGUCCGACGAUCGCCCAUGACUCCGUGGCCCAGGAGGGCCAGUGUCGGGUAGAUGACAAAGUGAAUUUCCAUUUUAUUCUGUUCAACAACGUGGACGGCCAUCUGUACGAGCUCGAUGGGCGAAUGCCCUUUCAACAGAGGAUUGAGCAUCA	0.185
GGGAGUUCUACAGUCCGACGAUCACUGUGGCAUAUACAGAGCAAAAAAUGACCAGUGGCAAAAUUAAAAAGUUUAUCCAGGAAAACAUUUUUGGUAUCUGCCCUCACAUGACAGAAGACAAUAAAGAUUUGAUACAGGGCAAGCAACAGAGGAUUGAGCAUCA	0.636
GGGAGUUCUACAGUCCGACGAUCAACAACAUCAAGGAAGUACUUCUGUUUCCUGCCAUGAAACCCGAAGACAAGAAGGAGAAUGUAGCAACCACUGAUACACUGGAAAGCACAACAGUUGGCACUUCUGUCUAGAAAAUAAUACAACAGAGGAUUGAGCAUCA	0.758

Single results of other studies
Molecule	target	assay	system	conditions	how to read	endpoint	result
PhoQ, residues 284 288 289 292 302 303 SIHLQL	PhoP, residues 12 14 15 18 19 NMSSL (Escherichia coli, UniProt P23836)	Sort-seq, item: YFP reporter	E. coli	PhoQ-PhoP variant library, added: 10 µM Mg2+	reference: high Mg2+ state, higher = stronger signaling	fold induction	13.5

Excerpt of the above (set 1):
Sequence	RBNS enrichment (R)
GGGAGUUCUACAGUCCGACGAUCACCUCUUUUUCUUUAUAAAUUACCCAGUCUUGGUUAUGUCUUUAUCAGCACUGUGAAAAUGAACCUAUACAGUAAAUUGGUACCAGUAGAGUGGGGCGCUGCUGUAAAUAUGGAAUUCUCGGGUGCCAA	0.588
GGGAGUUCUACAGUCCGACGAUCUGUUUCUAAAACACAGAACUUACAAGAGCCACAGGAGCCAAUUAUAGCACCUGACAGAAUACUUCUCCUCUUCCUCACCUUCGGGUGCCUCUAGACACUUGACUUACGAUUGGAAUUCUCGGGUGCCAA	0.272
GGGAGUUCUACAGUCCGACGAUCCCCUGGUCUUGGCGCUUCCCUGAUGGACAGAGCUCAAGUUCCAUUUAUAUUAACCGCCACCUGUGGAUUUUGCAGUAAUUGCUAACACAUGCAGUUUUAAUGGGAAGUGGUGGAAUUCUCGGGUGCCAA	0.275
